# Assay results pooled from the literature.
# A part holds a random share of what one study measured. Values joined by “and” are separate records of one study, mostly repeats; a detail may differ.
# Sequence of UniProt P42336 (whole entry, unmodified, looked up): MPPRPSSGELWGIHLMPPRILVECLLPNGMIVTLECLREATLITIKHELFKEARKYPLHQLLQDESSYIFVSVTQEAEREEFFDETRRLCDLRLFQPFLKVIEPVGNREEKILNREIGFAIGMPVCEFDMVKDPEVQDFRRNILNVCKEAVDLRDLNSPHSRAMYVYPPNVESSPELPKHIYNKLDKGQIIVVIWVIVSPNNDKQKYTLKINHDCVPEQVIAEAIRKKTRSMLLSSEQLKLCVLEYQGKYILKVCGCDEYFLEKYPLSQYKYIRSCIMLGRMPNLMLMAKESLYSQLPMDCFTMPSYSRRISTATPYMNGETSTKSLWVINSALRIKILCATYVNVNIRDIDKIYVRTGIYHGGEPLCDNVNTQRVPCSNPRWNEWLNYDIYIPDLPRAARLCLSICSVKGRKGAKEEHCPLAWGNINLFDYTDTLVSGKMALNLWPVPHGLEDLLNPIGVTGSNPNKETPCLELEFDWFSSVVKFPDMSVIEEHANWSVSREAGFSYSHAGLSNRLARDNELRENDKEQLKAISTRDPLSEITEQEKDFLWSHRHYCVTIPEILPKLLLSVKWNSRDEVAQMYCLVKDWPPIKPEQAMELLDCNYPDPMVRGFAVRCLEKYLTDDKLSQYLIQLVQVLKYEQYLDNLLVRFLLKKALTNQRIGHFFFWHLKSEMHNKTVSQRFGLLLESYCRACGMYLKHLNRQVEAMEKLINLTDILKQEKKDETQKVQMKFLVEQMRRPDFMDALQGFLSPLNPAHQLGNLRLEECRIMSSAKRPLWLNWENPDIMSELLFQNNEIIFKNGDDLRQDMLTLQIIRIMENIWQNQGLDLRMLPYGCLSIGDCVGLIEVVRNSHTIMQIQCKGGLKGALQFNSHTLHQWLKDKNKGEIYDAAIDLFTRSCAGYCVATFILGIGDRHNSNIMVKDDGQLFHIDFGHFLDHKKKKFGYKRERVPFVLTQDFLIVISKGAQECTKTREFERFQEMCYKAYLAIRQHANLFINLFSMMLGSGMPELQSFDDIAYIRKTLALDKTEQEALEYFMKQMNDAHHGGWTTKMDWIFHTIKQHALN
# Sequence of UniProt Q9BX84 (whole entry, looked up): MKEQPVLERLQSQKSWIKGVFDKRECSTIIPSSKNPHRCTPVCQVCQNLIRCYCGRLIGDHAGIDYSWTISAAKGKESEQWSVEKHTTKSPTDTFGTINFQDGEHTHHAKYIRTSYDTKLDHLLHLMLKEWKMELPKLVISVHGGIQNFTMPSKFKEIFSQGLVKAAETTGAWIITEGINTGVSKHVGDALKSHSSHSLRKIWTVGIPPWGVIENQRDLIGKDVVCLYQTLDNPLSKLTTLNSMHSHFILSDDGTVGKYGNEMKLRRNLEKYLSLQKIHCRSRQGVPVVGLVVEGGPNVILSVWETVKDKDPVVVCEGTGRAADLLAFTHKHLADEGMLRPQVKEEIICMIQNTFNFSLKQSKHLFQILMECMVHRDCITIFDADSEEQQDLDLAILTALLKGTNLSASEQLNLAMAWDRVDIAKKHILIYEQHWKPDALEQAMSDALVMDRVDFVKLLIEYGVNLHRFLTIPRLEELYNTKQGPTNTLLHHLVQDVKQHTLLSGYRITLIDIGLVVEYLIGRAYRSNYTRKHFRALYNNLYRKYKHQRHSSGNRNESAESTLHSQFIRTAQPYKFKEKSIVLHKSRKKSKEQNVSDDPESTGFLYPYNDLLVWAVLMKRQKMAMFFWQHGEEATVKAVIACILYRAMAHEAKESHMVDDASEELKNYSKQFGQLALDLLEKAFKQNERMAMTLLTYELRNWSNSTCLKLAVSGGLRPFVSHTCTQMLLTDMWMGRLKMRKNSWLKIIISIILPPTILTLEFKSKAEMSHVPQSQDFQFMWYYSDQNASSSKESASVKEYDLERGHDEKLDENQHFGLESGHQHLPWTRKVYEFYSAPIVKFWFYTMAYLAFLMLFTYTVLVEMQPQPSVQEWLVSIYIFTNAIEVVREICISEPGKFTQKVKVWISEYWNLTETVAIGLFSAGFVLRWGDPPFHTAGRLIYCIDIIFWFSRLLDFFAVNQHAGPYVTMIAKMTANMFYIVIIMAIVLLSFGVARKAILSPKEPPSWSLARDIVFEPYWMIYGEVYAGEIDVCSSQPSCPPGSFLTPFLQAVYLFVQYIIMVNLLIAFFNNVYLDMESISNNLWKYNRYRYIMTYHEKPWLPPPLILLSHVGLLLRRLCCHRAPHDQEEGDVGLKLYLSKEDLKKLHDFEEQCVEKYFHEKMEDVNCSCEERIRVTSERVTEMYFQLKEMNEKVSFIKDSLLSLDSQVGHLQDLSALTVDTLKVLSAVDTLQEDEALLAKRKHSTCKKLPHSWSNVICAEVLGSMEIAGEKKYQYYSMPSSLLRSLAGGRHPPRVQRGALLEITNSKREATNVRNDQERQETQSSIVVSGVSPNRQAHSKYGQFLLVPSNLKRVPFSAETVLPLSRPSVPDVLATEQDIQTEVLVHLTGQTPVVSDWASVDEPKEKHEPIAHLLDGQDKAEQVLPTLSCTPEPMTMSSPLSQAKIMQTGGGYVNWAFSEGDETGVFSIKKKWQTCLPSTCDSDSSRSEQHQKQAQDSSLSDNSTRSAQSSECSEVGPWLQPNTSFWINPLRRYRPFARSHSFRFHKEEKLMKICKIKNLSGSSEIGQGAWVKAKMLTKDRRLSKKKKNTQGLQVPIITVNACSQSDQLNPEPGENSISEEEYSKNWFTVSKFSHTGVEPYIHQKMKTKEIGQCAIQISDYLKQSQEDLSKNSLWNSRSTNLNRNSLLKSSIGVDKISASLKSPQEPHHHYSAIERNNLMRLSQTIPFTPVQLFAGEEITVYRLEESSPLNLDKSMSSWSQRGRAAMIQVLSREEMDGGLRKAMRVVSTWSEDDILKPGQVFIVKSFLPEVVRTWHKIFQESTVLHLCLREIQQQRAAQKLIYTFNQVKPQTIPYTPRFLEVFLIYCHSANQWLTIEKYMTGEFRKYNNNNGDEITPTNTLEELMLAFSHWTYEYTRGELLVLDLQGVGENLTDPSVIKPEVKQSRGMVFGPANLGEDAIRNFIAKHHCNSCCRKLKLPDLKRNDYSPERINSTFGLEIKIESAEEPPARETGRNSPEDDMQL
# Sequence of UniProt Q9UKE5 (whole entry, looked up): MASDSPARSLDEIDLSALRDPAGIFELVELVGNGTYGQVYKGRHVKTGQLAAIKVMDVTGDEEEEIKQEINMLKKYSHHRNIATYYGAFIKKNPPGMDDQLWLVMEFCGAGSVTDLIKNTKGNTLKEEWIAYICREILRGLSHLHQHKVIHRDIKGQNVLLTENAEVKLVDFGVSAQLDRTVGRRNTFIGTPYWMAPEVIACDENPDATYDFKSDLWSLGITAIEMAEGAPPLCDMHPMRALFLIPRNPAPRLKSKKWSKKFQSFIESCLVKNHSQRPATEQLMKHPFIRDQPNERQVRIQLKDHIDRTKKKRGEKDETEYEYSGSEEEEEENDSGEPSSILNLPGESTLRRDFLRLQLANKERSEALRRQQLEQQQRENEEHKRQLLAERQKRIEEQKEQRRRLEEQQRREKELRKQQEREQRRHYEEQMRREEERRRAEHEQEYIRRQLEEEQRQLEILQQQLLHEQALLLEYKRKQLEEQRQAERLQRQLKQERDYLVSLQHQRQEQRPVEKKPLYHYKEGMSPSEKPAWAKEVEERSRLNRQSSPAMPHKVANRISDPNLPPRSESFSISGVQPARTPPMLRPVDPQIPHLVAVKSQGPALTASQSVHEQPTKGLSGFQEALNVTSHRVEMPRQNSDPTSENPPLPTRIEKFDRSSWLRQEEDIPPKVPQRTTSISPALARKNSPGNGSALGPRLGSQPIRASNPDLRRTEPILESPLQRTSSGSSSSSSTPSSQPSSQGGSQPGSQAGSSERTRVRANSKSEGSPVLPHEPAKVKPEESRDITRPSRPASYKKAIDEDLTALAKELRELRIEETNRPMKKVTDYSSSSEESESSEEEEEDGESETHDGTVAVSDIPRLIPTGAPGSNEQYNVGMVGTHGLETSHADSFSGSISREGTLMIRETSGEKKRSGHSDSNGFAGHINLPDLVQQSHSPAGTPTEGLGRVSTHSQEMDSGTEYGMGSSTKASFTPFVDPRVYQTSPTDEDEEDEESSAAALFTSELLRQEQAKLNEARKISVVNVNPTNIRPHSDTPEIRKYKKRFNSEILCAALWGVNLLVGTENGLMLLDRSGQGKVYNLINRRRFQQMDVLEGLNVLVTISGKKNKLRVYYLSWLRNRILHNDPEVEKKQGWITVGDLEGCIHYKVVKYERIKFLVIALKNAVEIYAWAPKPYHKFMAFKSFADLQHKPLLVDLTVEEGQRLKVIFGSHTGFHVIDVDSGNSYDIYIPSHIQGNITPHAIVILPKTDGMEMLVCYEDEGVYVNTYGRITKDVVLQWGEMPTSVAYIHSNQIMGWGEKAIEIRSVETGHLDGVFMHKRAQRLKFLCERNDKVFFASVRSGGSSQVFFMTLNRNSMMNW
# Sequence of UniProt P20794 (whole entry, looked up): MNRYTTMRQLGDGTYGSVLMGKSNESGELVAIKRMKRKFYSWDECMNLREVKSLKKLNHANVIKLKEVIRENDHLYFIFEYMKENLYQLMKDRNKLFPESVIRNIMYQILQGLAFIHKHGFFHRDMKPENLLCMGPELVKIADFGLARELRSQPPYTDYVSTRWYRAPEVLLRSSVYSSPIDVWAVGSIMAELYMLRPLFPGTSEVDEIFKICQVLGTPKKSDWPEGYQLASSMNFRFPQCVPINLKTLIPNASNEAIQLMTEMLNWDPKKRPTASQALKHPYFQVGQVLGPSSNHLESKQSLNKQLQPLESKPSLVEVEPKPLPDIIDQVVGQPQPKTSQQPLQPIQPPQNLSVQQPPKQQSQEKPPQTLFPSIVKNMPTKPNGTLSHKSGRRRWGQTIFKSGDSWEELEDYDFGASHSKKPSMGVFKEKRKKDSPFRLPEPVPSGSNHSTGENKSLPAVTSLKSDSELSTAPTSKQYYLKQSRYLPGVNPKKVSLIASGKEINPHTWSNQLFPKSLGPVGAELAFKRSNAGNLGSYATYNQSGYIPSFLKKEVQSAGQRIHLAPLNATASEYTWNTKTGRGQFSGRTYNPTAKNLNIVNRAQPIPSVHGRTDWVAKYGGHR

# Sample 1
# Structure (SMILES): c1ccc(Oc2ccc(Nc3c4c(nc5ccccc35)CCC4)cc2)cc1
# Organism: Leishmania donovani
assay,test system,setting,inhibition
parasite killing,"DD8, promastigotes","1.66 µM, 48 h",65% and 70%
"parasite viability, resazurin","DD8, promastigotes",3.33 µM,87% and 94% and 99% and 90% and 93%
"parasite growth, high-content imaging","MHOM/IN/80/DD8, amastigotes in THP-1 cells",8 µM,100%
"parasite growth, high-content imaging","MHOM/IN/80/DD8, amastigotes in THP-1 cells",40 µM,100%
parasite killing,"DD8, intracellular amastigotes","4 µM, 24 h",54% and 50% and 61%

# Sample 2
# Compound: C[C@H](c1ccnc(Nc2nc3ccc(-c4cc(N(C)C)ncn4)cc3[nH]2)c1)N1CCN(C(=O)CC(F)(F)F)CC1
# Method: competition with immobilised ligand
# Tested at: 0.1 µM
target,assay,remaining binding [%]
"CSNK1G2 (Homo sapiens, UniProt P78368)",cell-free assay,96
"PIK3CA (Homo sapiens, UniProt P42336, H1047Y)",cell-free assay,100
"PAK4 (Homo sapiens, UniProt O96013)",cell-free assay,81
"EPHB3 (Homo sapiens, UniProt P54753)",cell-free assay,93
"TNIK (Homo sapiens, UniProt Q9UKE5)",cell-free assay,96
"CLK4 (Homo sapiens, UniProt Q9HAZ1)",cell-free assay,82
"MTOR (Homo sapiens, UniProt P42345)",cell-free assay,75
"PIK3CA (Homo sapiens, UniProt P42336, E545A)",cell-free assay,100
"TRPM6 (Homo sapiens, UniProt Q9BX84)",cell-free assay,100
"MAPK15 (Homo sapiens, UniProt Q8TD08)",cell-free assay,100
"NEK11 (Homo sapiens, UniProt Q8NG66)",cell-free assay,96
"SIK3 (Homo sapiens, UniProt Q9Y2K2)",cell-free assay,100
"PIM3 (Homo sapiens, UniProt Q86V86)",cell-free assay,87
"MAK (Homo sapiens, UniProt P20794)",binding,100
"TSSK3 (Homo sapiens, UniProt Q96PN8)",cell-free assay,74

# Sample 3
# Species: mouse
# Matrix: microsomes or S9
# Tested at: 2 µM
# Time: 0.5 h
Structure (SMILES),remaining compound
Cc1ccc(Nc2nc(-c3sc(C)nc3C)cs2)nc1,0.354%
Cc1ccc(S(=O)(=O)N(CC(=O)c2ccccc2)c2nc3nc(C)cc(C)n3n2)cc1,10.9%
CC(=O)c1ccc(NC(=O)Cn2cnc3c(nnn3-c3ccc(C)cc3)c2=O)cc1,81.3%
O=C1c2[nH]nc(-c3ccccc3)c2C(c2ccccn2)N1CCc1c[nH]c2ccccc12 (stereo not drawn),9.54%
CCN(CC)C(=O)c1sc(NC(=O)c2cc(OC)cc(OC)c2)c(C(=O)OC(C)C)c1C,39.1%
NC(=O)C1CCC(CNCc2cc3ccccc3s2)CC1 (stereo not drawn),0.239%
O=c1[nH]c2ccccc2c(O)c1-c1ccc(F)cc1,97.7%

# Sample 4
# SMILES: Cc1cc(Nc2nc(-c3ccccc3)nc3ccccc23)n[nH]1
# Read-out: enzyme activity
# Action: inhibitor
# Tested at: 0.5 µM
# Baseline: control
target,remaining activity
"STK39 (Homo sapiens, UniProt Q9UEW8)",118%
"CAMKK2 (Homo sapiens, UniProt Q96RR4)",88.6%
"IKBKE (Homo sapiens, UniProt Q14164)",67.1%
"DAPK2 (Homo sapiens, UniProt Q9UIK4)",89.5%
"Cyclin-dependent kinase 5, with p25 (CDK5, Homo sapiens, UniProt Q00535)",98.7%
"CAMK2D (Homo sapiens, UniProt Q13557)",97.3%

# Excerpt of the above (sample 4):
target,remaining activity
"STK39 (Homo sapiens, UniProt Q9UEW8)",118%
"DAPK2 (Homo sapiens, UniProt Q9UIK4)",89.5%
"CAMK2D (Homo sapiens, UniProt Q13557)",97.3%
"CAMKK2 (Homo sapiens, UniProt Q96RR4)",88.6%
"IKBKE (Homo sapiens, UniProt Q14164)",67.1%
